Experimental data pooled from the literature.
A part holds a random share of what one study measured. Values joined by “and” are separate records of one study, mostly repeats; a detail may differ.

Set 1
Host: human
Sample: microsomes or S9
Tested at: 2 µM
Time: 0.5 h
CC1=CC(C)(C)Oc2cc(C)c(C(=O)N=C(N)N)cc21 has a remaining compound of 69.8%.
With OC(CN(c1ccccc1)c1ccccc1)Cn1cnc2ccccc21 (stereo not shown) the remaining compound was < 1%.
N=c1c2cnn(-c3ccccc3)c2[nH]c(=O)n1-c1ccccc1 has a remaining compound of > 100%.
CCN1CC(NC(=O)c2cc3n(n2)CCC3)CC1=O (stereo not shown) has a remaining compound of > 100%.
Cc1ccc2nc3c(cc(C(=O)N4COCC4(C)C)n3Cc3ccccc3)c(=O)n2c1 has a remaining compound of 55.8%.
For O=C1NCCN1C(=O)N1CCCC(Oc2cccnn2)C1 (stereo not shown), the remaining compound was 87.3%.
With COc1cc2c(cc1Nc1ncc(Cl)c(Nc3ccc(C4CCN(C(C)=O)CC4)cc3OC)n1)CCCNC2 the remaining compound was > 100%.
Cn1ncc2cc(-c3ccc(C(C)(C)C)cc3)c(-c3ccc(C(C)(C)C)cc3)cc21 has a remaining compound of 7.86%.
For COC(=O)C1(C)Cc2ccc(Cl)cc2C(=O)O1 (stereo not shown), the remaining compound was 0%.
The remaining compound of Cn1cc(Br)c(=O)c(NC(=O)c2ccc(O)cc2F)c1 is reported as 88.7%.

Set 2
Target: Aurora kinase A (AURKA, Homo sapiens, UniProt O14965)
Read-out: enzyme activity
Action: inhibitor
Tested at: 0.5 µM
Reference: control
Construct (O14965 1-403): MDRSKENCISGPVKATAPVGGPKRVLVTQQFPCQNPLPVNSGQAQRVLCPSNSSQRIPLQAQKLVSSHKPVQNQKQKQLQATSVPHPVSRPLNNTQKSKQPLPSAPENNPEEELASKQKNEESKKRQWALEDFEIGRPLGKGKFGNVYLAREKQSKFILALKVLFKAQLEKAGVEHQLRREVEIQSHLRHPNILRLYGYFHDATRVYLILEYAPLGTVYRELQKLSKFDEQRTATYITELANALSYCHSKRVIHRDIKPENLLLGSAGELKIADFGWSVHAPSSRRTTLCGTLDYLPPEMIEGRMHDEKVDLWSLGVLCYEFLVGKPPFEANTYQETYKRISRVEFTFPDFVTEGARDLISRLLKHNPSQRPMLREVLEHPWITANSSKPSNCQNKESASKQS
With Oc1cccc(-c2nc(N3CCOCC3)c3oc4ncccc4c3n2)c1 the remaining activity was 91.9%.
For CCCNC(=O)Nc1ccc(Oc2ncnc3cc(OC)c(OC)cc23)cc1Cl, the remaining activity was 89.2%.
For CCCCc1c(-c2ccc(O)cc2)[nH]c2nccnc12, the remaining activity was 24.5%.
CC(C)n1cnc2c(Nc3cccc(Cl)c3)nc(NCCO)nc21 gave a remaining activity of 108%.
With c1cc(-c2cnn3cc(-c4ccc(OCCN5CCCCC5)cc4)cnc23)ccn1 the remaining activity was 74.8%.
CCN(CC)CCCCN1c2ccccc2Oc2ccc(Cl)cc21 gave a remaining activity of 93.3%.
For O=C1NC(=O)c2c1c1c3ccccc3[nH]c1n1cncc21, the remaining activity was 34.8%.
For CCCCc1c(-c2ccc(OC)cc2)[nH]c2nccnc12, the remaining activity was 25.4%.
For NC(=O)c1ccc(-c2nc(-c3ccc4c(c3)OCCO4)c(-c3ccccn3)[nH]2)cc1, the remaining activity was 105%.
FC(F)(F)c1ccc(/C=C/c2nc(COc3ccc(CCCCn4ccnn4)cc3)co2)cc1 gave a remaining activity of 111%.
COc1ccc2c(c1)c(C1=C(c3c[nH]c4ccccc34)C(=O)NC1=O)cn2CCCN(C)C has a remaining activity of 86.6%.
The remaining activity of O=c1c(-c2ccc(F)cc2)c(-c2ccncc2)[nH]n1-c1ccc(Cl)cc1 is reported as 94%.
C[C@@H](N)[C@H]1CC[C@H](C(=O)Nc2ccncc2)CC1 gave a remaining activity of 94.6%.
The remaining activity of N#C/C(=C(/N)SC1C=CC=CC1)c1cccc(C(O)c2ccncc2)c1 (stereo not shown) is reported as 103%.
With O=C(c1cc2cc(O)ccc2[nH]1)c1cc2cc(O)ccc2[nH]1 the remaining activity was 71.6%.
The remaining activity of CNc1cc2c(Nc3cccc(Br)c3)ncnc2cn1 is reported as 85.1%.
For O=c1cc(N2CCOCC2)oc2c(-c3ccccc3)cccc12, the remaining activity was 99%.
For O=C1Nc2ccccc2/C1=C\c1c(Cl)[nH]c2ccccc12, the remaining activity was 108%.
With Clc1ccc(Nc2nnc(Cc3ccncc3)c3ccccc23)cc1 the remaining activity was 79%.
O=C(O)/C=C/c1cc(Br)c(Br)c(Br)c1Br gave a remaining activity of 77.2%.
The remaining activity of O=C1Nc2ccc(Br)cc2/C1=C/c1cc2c([nH]1)CCCC2 is reported as 87.5%.
The remaining activity of O=C1NC(=O)c2c1c1c3ccccc3[nH]c1c1[nH]c3cc(Br)ccc3c21 is reported as 60.7%.
With COc1cc2c(N3CCN(C(=O)Nc4ccc(OC(C)C)cc4)CC3)ncnc2cc1OCCCN1CCCCC1 the remaining activity was 108%.
For O=C1Cc2c([nH]c3ccc(Br)cc23)-c2ccccc2N1, the remaining activity was 99.7%.
Nc1nc(Nc2ccc(S(N)(=O)=O)cc2)nn1C(=S)Nc1c(F)cccc1F gave a remaining activity of 1.44%.

Set 3
Cell line: mouse MPNST tumor cells
Technique: high-content nuclear imaging
Refers to: cell number
Tested at: 10 µM
Time: 12 h
Notes: mean of 2 replicates
Reference: plate mean
Reading: higher = more cells
C[C@H](O)C(=O)Nc1c(I)c(C(=O)NC(CO)CO)c(I)c(C(=O)NC(CO)CO)c1I gave a nuclei count of 1.68 z-score.
COC(=O)c1c(-c2cc(OC)c(OC)c(OC)c2)c2ccnc(OCc3ncccn3)c2c(=O)n1Cc1ccnc(C)c1 gave a nuclei count of 1.55 z-score.
The nuclei count of O=C(O)c1ccc(S(=O)(=O)N(Cc2ccc(OC(F)(F)F)cc2)c2ncc(C(F)(F)F)cc2Cl)cc1 is reported as 2.36 z-score.
O=C(NC(NC(=S)Nc1ccc(F)c([N+](=O)[O-])c1)C(Cl)(Cl)Cl)C(c1ccccc1)c1ccccc1 (stereo not shown) has a nuclei count of -2.17 z-score.
With CC12CC3CC(C)(C1)CC(N)(C3)C2 the nuclei count was 2.96 z-score and 2.31 z-score.
For O=C(OC(C(F)(F)F)C(F)(F)F)N1CCC(C(O)(c2ccc3c(c2)OCO3)c2ccc3c(c2)OCO3)CC1, the nuclei count was 4.17 z-score.
CC(C)Oc1ccc2c(=O)c(-c3ccccc3)coc2c1 gave a nuclei count of 1.14 z-score.
CC[C@H](NC(=O)c1c(C)c(-c2ccccc2)nc2ccccc12)c1ccccc1 has a nuclei count of 0.332 z-score.
The nuclei count of CCOC(=O)c1c(C)[nH]c2ccc3c(c12)CN1CCc2cc(OC)ccc2C1O3 (stereo not shown) is reported as -4.11 z-score.
The nuclei count of Cc1ccc(C(=O)C(C)CN2CCCCC2)cc1 (stereo not shown) is reported as 0.618 z-score.

Set 4
Compound: C[C@@H]1CN(c2ccc(-c3cc(C(=O)NCCOCCOCCOCCOCCOCCOCCNC(=O)/C=C/c4[nH]cc(C(=O)N[C@@H](CC(N)=O)c5ccc(F)c(Cl)c5)c4-c4ccc(Cl)cc4F)ccc3F)cc2NC(=O)c2ccc(F)cc2C(F)(F)F)C[C@H](C)N1C
Action: degrader
Time: 24 h
WDR5: WD repeat-containing protein 5 (WDR5, Homo sapiens, UniProt P61964)
WDR5/DCAF1: WDR5/DCAF1 (Homo sapiens, UniProt P61964+Q9Y4B6)
WDR5; Jess capillary immunoassay, refers to: WDR5 over vinculin; 11 nM; reference: DMSO — “remaining protein level”: 110% and 103% and 68.7%.
It gave 80.7% and 72.4% and 67.8% for “remaining protein level” (WDR5; Jess capillary immunoassay, refers to: WDR5 over vinculin; 4270 nM; reference: DMSO).
The “remaining protein level” was 70.9% and 68% and 61% (WDR5/DCAF1; HiBiT luminescence; 227 nM).
It gave 67.2% and 76.7% and 65.8% for “remaining protein level” (WDR5; Jess capillary immunoassay, refers to: WDR5 over vinculin; 777 nM; reference: DMSO).
For WDR5/DCAF1; HiBiT luminescence; 34.2 nM: “remaining protein level” read 75.5% and 86.8% and 92%.
WDR5; Jess capillary immunoassay, refers to: WDR5 over vinculin; 141 nM; reference: DMSO — “remaining protein level”: 67.5% and 73.7% and 89.9%.
For WDR5; Jess capillary immunoassay, refers to: WDR5 over vinculin; 331 nM; reference: DMSO: “remaining protein level” read 62.3% and 70.9% and 80.6%.

Some of these lines once more (set 3):
CC(C)Oc1ccc2c(=O)c(-c3ccccc3)coc2c1 gave a nuclei count of 1.14 z-score.
For O=C(OC(C(F)(F)F)C(F)(F)F)N1CCC(C(O)(c2ccc3c(c2)OCO3)c2ccc3c(c2)OCO3)CC1, the nuclei count was 4.17 z-score.
With CC12CC3CC(C)(C1)CC(N)(C3)C2 the nuclei count was 2.96 z-score and 2.31 z-score.
CC[C@H](NC(=O)c1c(C)c(-c2ccccc2)nc2ccccc12)c1ccccc1 has a nuclei count of 0.332 z-score.
The nuclei count of CCOC(=O)c1c(C)[nH]c2ccc3c(c12)CN1CCc2cc(OC)ccc2C1O3 (stereo not shown) is reported as -4.11 z-score.
The nuclei count of O=C(O)c1ccc(S(=O)(=O)N(Cc2ccc(OC(F)(F)F)cc2)c2ncc(C(F)(F)F)cc2Cl)cc1 is reported as 2.36 z-score.
C[C@H](O)C(=O)Nc1c(I)c(C(=O)NC(CO)CO)c(I)c(C(=O)NC(CO)CO)c1I gave a nuclei count of 1.68 z-score.
COC(=O)c1c(-c2cc(OC)c(OC)c(OC)c2)c2ccnc(OCc3ncccn3)c2c(=O)n1Cc1ccnc(C)c1 gave a nuclei count of 1.55 z-score.
